{"data": "Measured values collected from several papers", "note": "Each numbered part is a random draw from the data of one study; scales do not carry over between parts. ± marks the error that the study gave.", "chain of UniProt Q86U86 (whole entry, unmodified, looked up)": "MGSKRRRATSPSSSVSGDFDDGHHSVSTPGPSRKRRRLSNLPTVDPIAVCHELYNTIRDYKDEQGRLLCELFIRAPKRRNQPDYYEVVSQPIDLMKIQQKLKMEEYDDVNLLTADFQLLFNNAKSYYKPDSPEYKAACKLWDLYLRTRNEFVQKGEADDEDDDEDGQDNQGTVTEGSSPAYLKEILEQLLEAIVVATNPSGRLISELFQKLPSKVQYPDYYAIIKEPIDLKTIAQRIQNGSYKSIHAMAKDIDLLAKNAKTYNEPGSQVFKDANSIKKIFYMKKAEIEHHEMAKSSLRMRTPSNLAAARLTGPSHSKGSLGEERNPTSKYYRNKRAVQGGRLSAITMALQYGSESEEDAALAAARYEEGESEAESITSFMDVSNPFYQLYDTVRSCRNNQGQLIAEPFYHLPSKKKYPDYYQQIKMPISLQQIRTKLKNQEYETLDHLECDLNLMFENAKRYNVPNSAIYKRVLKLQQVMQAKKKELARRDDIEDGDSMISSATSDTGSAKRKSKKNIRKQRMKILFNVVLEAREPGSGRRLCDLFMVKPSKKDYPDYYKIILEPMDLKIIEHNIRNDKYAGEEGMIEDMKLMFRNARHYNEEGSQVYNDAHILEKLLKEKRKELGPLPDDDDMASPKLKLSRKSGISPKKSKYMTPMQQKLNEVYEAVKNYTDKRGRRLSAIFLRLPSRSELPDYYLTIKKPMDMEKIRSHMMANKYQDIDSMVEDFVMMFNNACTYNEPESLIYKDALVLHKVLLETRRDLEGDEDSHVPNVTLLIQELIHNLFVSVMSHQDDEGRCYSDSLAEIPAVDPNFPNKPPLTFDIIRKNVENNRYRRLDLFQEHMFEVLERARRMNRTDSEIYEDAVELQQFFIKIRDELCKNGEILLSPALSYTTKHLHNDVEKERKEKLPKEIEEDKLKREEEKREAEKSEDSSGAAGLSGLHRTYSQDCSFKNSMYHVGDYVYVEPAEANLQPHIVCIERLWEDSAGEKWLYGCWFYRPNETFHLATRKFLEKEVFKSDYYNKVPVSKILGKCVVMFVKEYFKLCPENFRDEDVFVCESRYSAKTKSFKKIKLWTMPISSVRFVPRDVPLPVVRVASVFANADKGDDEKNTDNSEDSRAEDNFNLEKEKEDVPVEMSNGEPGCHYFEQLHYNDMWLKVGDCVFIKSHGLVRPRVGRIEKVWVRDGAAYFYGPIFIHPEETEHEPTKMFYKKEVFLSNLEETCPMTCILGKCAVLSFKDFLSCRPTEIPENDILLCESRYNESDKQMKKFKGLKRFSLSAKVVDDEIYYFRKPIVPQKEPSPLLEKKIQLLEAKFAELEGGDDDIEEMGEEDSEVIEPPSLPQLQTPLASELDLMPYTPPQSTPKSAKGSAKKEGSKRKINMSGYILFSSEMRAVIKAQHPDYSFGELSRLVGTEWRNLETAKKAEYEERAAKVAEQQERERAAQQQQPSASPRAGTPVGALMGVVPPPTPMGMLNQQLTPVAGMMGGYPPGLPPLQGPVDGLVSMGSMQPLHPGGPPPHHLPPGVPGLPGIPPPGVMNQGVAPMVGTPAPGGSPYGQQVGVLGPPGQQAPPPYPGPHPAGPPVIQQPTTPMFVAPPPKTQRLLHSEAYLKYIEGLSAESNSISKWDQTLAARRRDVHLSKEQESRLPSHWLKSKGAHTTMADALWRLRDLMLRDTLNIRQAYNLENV", "chain of UniProt P49841 (whole entry, looked up)": "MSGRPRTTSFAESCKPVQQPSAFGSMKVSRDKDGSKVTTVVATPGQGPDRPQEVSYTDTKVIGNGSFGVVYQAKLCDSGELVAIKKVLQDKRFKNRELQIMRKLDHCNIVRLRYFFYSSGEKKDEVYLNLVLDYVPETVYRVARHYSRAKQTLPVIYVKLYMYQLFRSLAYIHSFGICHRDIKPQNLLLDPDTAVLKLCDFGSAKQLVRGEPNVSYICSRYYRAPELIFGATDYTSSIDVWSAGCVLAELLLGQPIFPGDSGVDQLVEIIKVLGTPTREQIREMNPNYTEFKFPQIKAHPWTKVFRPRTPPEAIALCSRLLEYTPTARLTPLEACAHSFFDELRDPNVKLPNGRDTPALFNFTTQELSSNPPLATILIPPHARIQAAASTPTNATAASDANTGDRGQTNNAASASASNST"}
{"data": "Set 1", "target": "DNA polymerase theta, ATPase domain (POLQ, Homo sapiens, UniProt O75417)", "effect on": "enzyme activity", "action": "inhibitor", "concentration": "77 µM", "relative to": "untreated", "chain of UniProt O75417 (whole entry, unmodified, looked up)": "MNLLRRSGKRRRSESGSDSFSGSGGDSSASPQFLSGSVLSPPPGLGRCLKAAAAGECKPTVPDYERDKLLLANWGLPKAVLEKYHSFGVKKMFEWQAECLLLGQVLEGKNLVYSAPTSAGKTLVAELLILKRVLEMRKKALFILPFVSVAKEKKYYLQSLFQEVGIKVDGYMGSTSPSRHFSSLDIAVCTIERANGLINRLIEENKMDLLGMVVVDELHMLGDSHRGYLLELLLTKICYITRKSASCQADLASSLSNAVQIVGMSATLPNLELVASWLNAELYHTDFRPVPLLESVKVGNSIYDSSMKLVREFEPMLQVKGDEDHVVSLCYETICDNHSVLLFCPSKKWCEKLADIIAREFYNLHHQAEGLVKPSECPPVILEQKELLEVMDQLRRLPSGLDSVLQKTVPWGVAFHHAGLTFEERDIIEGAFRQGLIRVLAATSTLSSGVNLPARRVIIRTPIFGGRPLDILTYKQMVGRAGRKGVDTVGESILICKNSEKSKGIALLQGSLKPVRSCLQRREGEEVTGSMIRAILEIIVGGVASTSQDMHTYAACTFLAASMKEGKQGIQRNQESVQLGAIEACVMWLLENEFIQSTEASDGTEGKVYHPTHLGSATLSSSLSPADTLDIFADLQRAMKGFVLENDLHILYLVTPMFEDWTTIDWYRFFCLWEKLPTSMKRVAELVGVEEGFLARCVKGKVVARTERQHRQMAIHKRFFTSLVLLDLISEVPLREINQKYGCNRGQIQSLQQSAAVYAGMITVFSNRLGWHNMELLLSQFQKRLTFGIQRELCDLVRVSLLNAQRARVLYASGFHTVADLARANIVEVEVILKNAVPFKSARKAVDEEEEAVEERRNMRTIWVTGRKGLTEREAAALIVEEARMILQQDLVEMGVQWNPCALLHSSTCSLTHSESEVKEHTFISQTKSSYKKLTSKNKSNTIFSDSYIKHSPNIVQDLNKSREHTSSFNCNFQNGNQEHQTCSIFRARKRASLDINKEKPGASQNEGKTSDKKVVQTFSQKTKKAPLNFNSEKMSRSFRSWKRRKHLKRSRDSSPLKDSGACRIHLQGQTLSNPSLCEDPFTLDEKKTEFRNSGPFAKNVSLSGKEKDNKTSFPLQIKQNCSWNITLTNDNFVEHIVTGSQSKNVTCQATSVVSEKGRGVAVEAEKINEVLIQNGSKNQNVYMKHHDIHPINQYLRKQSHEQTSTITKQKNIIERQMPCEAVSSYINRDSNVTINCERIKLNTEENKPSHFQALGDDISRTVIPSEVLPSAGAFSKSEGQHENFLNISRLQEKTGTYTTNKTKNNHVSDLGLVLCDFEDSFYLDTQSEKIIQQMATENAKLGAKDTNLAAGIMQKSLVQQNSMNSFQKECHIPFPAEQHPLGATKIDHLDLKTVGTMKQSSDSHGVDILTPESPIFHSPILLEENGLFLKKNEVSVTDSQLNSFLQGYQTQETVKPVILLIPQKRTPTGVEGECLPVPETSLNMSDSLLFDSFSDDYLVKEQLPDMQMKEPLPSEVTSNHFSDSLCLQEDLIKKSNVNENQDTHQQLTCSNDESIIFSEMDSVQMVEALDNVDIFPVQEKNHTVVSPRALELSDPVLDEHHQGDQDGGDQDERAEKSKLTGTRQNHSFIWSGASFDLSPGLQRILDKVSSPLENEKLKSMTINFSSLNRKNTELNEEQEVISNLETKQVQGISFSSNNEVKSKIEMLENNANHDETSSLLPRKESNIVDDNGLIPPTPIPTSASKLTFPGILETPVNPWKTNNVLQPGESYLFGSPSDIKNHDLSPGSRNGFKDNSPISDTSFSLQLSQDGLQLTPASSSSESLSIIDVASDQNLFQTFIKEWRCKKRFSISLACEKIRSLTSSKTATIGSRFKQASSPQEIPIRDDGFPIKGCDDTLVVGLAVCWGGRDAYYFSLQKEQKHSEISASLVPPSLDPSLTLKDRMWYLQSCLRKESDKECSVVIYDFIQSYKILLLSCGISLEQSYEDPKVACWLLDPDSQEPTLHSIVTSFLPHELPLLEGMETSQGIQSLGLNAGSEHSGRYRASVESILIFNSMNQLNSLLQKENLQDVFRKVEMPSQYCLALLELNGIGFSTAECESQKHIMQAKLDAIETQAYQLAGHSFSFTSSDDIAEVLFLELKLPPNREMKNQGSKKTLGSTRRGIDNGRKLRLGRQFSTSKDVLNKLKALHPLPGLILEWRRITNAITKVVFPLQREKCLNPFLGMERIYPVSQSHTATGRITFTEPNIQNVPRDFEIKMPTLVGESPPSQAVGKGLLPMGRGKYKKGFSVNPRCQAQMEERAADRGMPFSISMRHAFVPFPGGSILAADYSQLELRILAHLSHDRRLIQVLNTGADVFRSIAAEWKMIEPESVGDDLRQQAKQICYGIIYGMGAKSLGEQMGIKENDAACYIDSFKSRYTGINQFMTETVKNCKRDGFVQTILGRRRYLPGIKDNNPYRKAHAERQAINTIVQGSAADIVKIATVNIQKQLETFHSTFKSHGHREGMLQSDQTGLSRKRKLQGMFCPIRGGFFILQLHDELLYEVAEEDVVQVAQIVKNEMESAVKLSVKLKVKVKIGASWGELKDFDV"}
{"SMILES": "CCOC(=O)Nc1cc(-c2ccc(C)c(NS(C)(=O)=O)c2)nn2c(C)nnc12", "remaining activity [%]": 99.9}
{"SMILES": "CC(C)(C)NC[C@H](O)COc1ccccc1C1CCCC1", "remaining activity [%]": 96.8}
{"SMILES": "CN1CCCC(CC2c3ccccc3Sc3ccccc32)C1 (stereo not drawn)", "remaining activity [%]": 108}
{"SMILES": "Clc1ccc2c(N3CCN(CCCN4CCN(c5ccnc6cc(Cl)ccc56)CC4)CC3)ccnc2c1", "remaining activity [%]": 92.5}
{"SMILES": "O=C(O)CCC(=O)N1CCC[C@H]1C(=O)O", "remaining activity [%]": 97.2}
{"SMILES": "CNCC[C@@H](Oc1ccccc1C)c1ccccc1", "remaining activity [%]": 102}
{"SMILES": "CN(C)c1nc(N)c(C(=O)NC(=N)N)nc1Cl", "remaining activity [%]": 112}
{"SMILES": "CCN=C1N[C@@H]2[C@@H](O)[C@H](O)[C@@H](CO)O[C@@H]2S1", "remaining activity [%]": 101}
{"data": "Set 2", "Structure (SMILES)": "Oc1ccc(-c2nc(-c3ccncc3)c(-c3ccc(F)cc3)[nH]2)cc1", "concentration": "10 µM"}
{"target": "Transcription initiation factor TFIID subunit 1, BD1 (TAF1, Homo sapiens, UniProt P21675)", "effect on": "thermal stability", "technique": "DSF", "ΔTm": "-0.08 °C"}
{"target": "Peregrin, bromodomain (BRPF1, Homo sapiens, UniProt P55201)", "effect on": "thermal stability", "technique": "DSF", "ΔTm": "0.74 °C"}
{"target": "Bromodomain-containing protein 3, BD2 (BRD3, Homo sapiens, UniProt Q15059)", "effect on": "thermal stability", "technique": "DSF", "ΔTm": "0.8 °C"}
{"target": "Bromodomain testis-specific protein, BD2 (BRDT, Homo sapiens, UniProt Q58F21)", "effect on": "thermal stability", "technique": "DSF", "ΔTm": "0.7 °C"}
{"target": "Protein polybromo-1, BD6 (PBRM1, Homo sapiens, UniProt Q86U86)", "technique": "thermal shift", "ΔTm": "0.43 ± 0.4 °C"}
{"target": "Protein polybromo-1, bromodomain (PBRM1, Homo sapiens, UniProt Q86U86)", "effect on": "thermal stability", "technique": "DSF", "ΔTm": "0.47 °C"}
{"target": "Bromodomain adjacent to zinc finger domain protein 2B, bromodomain (BAZ2B, Homo sapiens, UniProt Q9UIF8)", "effect on": "thermal stability", "technique": "DSF", "ΔTm": "0.12 °C"}
{"target": "CREBBP (Homo sapiens, UniProt Q92793)", "effect on": "thermal stability", "technique": "DSF", "ΔTm": "0.47 °C"}
{"data": "Set 3", "target": "Eukaryotic initiation factor 4A-III (Homo sapiens, UniProt P38919)", "effect on": "RNA clamping", "technique": "fluorescence polarization", "concentration": "concentration not given", "notes": "mean of two replicates", "with": "FAM-labelled poly r(AG)8 RNA", "chain of UniProt P38919 (whole entry, looked up)": "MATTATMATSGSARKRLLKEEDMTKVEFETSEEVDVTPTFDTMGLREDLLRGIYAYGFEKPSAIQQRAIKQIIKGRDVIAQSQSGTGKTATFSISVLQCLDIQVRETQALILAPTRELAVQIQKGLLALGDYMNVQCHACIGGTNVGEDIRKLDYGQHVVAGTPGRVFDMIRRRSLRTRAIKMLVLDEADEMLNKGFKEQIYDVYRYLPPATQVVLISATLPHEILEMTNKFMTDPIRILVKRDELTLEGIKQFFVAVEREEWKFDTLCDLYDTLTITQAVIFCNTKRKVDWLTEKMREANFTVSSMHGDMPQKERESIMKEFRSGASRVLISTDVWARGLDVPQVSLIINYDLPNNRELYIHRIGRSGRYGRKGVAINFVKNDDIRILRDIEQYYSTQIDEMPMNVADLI"}
{"SMILES": "C=CCn1c(-c2ccccc2)nc2c(c1=O)[C@@H](c1ccccc1)[C@]1(c3ccc(OC)cc3)Oc3cc(OC)cc(OC)c3[C@]21O", "fluorescence polarization change [mP]": 9.2}
{"SMILES": "CNCCOc1ccc2c(c1)O[C@@]1(c3ccc(Cl)cc3)[C@H](c3ccccc3)C[C@H](O)[C@@]21O", "fluorescence polarization change [mP]": 109}
{"SMILES": "COC(=O)[C@H]1C(=O)[C@@]2(NCc3nccn3C)c3c(OC)cc(OC)cc3O[C@@]2(c2ccc(OC)cc2)[C@@H]1c1ccccc1", "fluorescence polarization change [mP]": 3.4}
{"SMILES": "COc1ccc([C@@]23Oc4cc(OC)cc(OC)c4[C@]2(O)[C@H](O)[C@H](C(=O)N(C)C)[C@H]3c2ccccc2)cc1", "fluorescence polarization change [mP]": 38}
{"SMILES": "C#CCCCOC(=O)/C=C/Cn1c(-c2ccccc2)nc2c(c1=O)[C@@H](c1ccccc1)[C@]1(c3ccc(OC)cc3)Oc3cc(OC)cc(OC)c3[C@]21O", "fluorescence polarization change [mP]": 5.9}
{"SMILES": "C#CCOc1ccc(-c2nc(OCC#C)c3c(n2)[C@@]2(O)c4c(OC)cc(OC)cc4O[C@@]2(c2ccc(OC)cc2)[C@@H]3c2ccccc2)cc1", "fluorescence polarization change [mP]": 2.1}
{"SMILES": "COc1ccc([C@@]23Oc4cc(OC)cc(OC)c4[C@]2(O)[C@H](O)[C@H](CO)[C@H]3c2ccccc2)cc1", "fluorescence polarization change [mP]": 39.6}
{"data": "Set 4", "Structure (SMILES)": "Cc1cc(C)c(-n2ccn3nc(-c4cccnc4)cc23)cc1NC(=O)c1cc(C#N)cc(S(F)(F)(F)(F)F)c1", "effect on": "cell-free assay", "technique": "competition with immobilised ligand", "concentration": "0.1 µM"}
{"target": "ALK (Homo sapiens, UniProt Q9UM73)", "remaining binding [%]": 94.4}
{"target": "FGFR4 (Homo sapiens, UniProt P22455)", "remaining binding [%]": 99.4}
{"target": "LATS2 (Homo sapiens, UniProt Q9NRM7)", "remaining binding [%]": 73.2}
{"target": "Tyrosine-protein kinase ABL1, phosphorylated (ABL1, Homo sapiens, UniProt P00519, M351T)", "remaining binding [%]": 82.6}
{"target": "BRAF (Homo sapiens, UniProt P15056)", "remaining binding [%]": 89.4}
{"target": "ROCK1 (Homo sapiens, UniProt Q13464)", "remaining binding [%]": 74.9}
{"target": "HIPK1 (Homo sapiens, UniProt Q86Z02)", "remaining binding [%]": 61.6}
{"target": "EPHA6 (Homo sapiens, UniProt Q9UF33)", "remaining binding [%]": 82.6}
{"target": "SRPK2 (Homo sapiens, UniProt P78362)", "remaining binding [%]": 60.1}
{"target": "HCK (Homo sapiens, UniProt P08631)", "remaining binding [%]": 72.1}
{"target": "DCLK3 (Homo sapiens, UniProt Q9C098)", "remaining binding [%]": 83.5}
{"target": "MAP2K5 (Homo sapiens, UniProt Q13163)", "remaining binding [%]": 91.8}
{"target": "FLT3 (Homo sapiens, UniProt P36888, N841I)", "remaining binding [%]": 95.3}
{"target": "FES (Homo sapiens, UniProt P07332)", "remaining binding [%]": 84.6}
{"target": "GSK3B (Homo sapiens, UniProt P49841)", "remaining binding [%]": 85.9}
{"target": "CDK17 (Homo sapiens, UniProt Q00537)", "remaining binding [%]": 99.3}
{"note": "Repeated from above (set 4):"}
{"target": "HIPK1 (Homo sapiens, UniProt Q86Z02)", "remaining binding [%]": 61.6}
{"target": "EPHA6 (Homo sapiens, UniProt Q9UF33)", "remaining binding [%]": 82.6}
{"target": "SRPK2 (Homo sapiens, UniProt P78362)", "remaining binding [%]": 60.1}
